{"data": "Assay results pooled from the literature", "note": "Every numbered part comes from another study and shows a few of its results, in no order.", "UniProt O75582, sequence (whole entry, looked up)": "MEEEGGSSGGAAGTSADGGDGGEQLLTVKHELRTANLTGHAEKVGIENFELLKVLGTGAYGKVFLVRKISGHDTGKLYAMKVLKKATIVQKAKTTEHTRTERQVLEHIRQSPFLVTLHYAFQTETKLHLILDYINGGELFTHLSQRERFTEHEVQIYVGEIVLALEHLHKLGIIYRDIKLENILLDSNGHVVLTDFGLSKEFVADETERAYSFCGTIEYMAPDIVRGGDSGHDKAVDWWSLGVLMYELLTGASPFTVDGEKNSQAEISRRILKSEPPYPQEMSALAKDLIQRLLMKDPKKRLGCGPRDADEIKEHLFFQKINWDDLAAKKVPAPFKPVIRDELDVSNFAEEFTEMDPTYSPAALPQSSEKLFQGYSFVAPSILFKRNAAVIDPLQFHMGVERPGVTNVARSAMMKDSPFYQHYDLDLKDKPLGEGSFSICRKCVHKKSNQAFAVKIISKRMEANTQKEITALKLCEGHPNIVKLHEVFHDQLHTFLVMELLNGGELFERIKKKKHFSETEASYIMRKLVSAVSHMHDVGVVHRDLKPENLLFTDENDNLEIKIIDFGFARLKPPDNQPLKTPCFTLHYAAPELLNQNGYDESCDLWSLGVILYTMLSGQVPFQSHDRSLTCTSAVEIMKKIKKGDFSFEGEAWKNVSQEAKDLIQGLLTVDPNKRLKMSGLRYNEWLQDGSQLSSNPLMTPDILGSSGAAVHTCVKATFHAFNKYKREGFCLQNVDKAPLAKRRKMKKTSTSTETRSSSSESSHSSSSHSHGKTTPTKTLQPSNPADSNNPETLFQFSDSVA", "UniProt P50750, sequence (whole entry, looked up)": "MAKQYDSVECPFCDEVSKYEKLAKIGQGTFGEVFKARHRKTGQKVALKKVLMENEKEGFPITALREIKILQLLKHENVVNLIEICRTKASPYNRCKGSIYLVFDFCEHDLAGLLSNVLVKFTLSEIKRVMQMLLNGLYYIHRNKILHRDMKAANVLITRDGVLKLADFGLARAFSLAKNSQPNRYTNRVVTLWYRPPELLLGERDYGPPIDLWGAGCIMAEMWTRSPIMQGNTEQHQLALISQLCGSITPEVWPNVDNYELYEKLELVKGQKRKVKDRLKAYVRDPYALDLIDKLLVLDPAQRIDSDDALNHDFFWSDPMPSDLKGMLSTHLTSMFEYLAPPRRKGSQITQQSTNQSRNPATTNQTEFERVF", "UniProt P42336, sequence (whole entry, unmodified, looked up)": "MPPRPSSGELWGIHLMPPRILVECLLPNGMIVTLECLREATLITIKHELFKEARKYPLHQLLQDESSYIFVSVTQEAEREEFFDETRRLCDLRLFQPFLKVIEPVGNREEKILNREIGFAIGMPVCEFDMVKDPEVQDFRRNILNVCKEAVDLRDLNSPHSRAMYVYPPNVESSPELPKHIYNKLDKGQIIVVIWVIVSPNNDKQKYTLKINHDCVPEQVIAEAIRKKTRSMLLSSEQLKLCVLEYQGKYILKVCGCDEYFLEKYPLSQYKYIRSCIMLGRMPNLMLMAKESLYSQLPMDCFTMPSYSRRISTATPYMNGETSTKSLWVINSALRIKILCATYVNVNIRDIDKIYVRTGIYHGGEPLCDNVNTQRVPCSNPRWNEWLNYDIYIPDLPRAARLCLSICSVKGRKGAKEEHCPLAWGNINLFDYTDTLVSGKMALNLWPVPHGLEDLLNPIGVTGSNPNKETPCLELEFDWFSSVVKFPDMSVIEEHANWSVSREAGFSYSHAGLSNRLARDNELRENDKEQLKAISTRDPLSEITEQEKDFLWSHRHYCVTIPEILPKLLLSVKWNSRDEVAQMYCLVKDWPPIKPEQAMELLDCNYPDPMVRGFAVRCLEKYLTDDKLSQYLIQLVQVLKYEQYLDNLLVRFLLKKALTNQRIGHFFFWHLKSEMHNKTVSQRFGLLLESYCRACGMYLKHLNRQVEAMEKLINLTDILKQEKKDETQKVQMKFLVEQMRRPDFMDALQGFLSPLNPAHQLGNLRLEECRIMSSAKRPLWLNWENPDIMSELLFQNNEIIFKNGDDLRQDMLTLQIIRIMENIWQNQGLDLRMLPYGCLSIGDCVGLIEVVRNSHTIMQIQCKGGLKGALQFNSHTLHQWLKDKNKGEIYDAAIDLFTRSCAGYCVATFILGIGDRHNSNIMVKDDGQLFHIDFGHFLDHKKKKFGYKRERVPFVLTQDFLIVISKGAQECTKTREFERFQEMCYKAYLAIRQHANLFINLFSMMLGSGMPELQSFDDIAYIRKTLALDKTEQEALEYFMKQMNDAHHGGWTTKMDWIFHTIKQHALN", "UniProt Q13523, sequence (whole entry, looked up)": "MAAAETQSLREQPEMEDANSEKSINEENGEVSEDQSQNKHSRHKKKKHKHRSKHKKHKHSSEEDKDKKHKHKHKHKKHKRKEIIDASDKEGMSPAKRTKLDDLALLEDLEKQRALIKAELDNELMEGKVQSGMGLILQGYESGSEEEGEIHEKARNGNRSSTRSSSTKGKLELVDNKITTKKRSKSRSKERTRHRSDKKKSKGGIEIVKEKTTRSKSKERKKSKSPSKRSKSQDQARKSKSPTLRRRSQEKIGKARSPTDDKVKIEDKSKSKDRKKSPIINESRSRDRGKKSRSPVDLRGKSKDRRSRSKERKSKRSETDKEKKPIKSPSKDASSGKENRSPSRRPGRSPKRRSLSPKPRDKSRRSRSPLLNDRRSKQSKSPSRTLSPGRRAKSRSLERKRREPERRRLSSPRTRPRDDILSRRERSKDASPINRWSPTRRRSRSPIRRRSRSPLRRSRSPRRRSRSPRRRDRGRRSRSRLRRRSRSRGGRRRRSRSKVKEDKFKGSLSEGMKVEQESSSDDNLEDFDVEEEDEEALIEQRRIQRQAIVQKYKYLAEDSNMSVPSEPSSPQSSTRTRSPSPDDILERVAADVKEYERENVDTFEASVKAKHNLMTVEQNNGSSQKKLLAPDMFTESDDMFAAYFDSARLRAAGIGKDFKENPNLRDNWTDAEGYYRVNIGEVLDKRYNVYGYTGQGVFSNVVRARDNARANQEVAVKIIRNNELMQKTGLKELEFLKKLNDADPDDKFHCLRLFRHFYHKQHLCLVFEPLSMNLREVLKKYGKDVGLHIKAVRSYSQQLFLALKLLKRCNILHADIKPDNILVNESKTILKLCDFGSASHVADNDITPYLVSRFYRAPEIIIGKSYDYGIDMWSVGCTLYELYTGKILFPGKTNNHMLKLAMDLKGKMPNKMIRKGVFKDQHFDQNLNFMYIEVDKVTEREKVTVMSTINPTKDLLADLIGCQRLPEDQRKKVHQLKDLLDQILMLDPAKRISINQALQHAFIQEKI", "UniProt P42679, sequence (whole entry, looked up)": "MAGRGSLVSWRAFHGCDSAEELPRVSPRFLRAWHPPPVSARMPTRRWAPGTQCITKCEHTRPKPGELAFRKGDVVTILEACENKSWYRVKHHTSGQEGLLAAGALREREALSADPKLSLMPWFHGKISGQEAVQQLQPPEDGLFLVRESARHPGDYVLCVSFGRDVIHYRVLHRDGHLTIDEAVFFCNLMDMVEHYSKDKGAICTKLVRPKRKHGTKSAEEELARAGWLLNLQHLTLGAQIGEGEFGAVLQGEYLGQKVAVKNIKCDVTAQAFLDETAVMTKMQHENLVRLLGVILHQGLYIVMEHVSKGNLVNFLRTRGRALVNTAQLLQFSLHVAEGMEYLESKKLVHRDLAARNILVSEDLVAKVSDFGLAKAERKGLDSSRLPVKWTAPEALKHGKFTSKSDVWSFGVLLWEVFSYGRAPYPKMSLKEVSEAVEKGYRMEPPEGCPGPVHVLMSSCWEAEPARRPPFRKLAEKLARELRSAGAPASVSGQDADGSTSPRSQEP", "UniProt Q13705, sequence (whole entry, looked up)": "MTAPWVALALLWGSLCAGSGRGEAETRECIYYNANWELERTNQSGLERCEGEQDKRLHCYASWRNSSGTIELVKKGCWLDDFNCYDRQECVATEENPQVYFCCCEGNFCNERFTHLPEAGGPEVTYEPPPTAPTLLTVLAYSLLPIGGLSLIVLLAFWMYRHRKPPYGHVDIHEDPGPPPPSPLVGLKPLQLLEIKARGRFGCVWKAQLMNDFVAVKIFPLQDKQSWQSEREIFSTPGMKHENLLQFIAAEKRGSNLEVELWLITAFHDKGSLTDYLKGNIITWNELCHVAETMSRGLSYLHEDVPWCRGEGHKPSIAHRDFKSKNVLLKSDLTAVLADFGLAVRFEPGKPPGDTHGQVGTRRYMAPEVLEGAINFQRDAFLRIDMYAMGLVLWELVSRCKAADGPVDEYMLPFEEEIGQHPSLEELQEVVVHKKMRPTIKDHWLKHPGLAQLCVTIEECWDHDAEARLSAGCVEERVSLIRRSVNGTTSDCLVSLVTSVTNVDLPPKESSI"}
{"data": "Sample 1", "target": "Protein C-ets-1 (ETS1, Homo sapiens, UniProt P14921, residues 1-441, Y397A, full length assumed)", "technique": "protein-binding microarray", "form": "double-stranded DNA, one strand shown", "sample": "in vitro", "tested at": "not given", "setting": "k-mer, scored over probes, only values ≥0.25", "reading": "higher = stronger binding", "Residues (chain)": "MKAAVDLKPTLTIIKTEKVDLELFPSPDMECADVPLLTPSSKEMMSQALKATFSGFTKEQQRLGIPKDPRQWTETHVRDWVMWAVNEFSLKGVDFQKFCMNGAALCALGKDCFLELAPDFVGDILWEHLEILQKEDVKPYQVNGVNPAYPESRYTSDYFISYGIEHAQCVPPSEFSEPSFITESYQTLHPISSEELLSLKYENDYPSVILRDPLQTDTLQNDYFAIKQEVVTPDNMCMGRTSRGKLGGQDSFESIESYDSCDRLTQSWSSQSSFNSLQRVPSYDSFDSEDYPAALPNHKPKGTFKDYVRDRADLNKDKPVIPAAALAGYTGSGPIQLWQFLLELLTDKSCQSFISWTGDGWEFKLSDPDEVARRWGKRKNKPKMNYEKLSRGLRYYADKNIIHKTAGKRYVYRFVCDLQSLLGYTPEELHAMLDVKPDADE"}
{"Oligonucleotide": "GTTTCCGA", "E-score": 0.327}
{"Oligonucleotide": "CCCACCCG", "E-score": 0.308}
{"Oligonucleotide": "GAAACACA", "E-score": 0.252}
{"Oligonucleotide": "ACAAATTG", "E-score": 0.285}
{"Oligonucleotide": "GTGGGGTA", "E-score": 0.263}
{"Oligonucleotide": "TACGAGTA", "E-score": 0.258}
{"Oligonucleotide": "ATCGACAA", "E-score": 0.336}
{"Oligonucleotide": "ATGTCACG", "E-score": 0.258}
{"data": "Sample 2", "SMILES": "O=C(NS(=O)(=O)c1ccc(NCC2CCOCC2)c([N+](=O)[O-])c1)c1ccc(N2CCN(Cc3ccc(C(F)(F)F)cc3-c3ccc(Cl)cc3)CC2)cc1Oc1cnc2[nH]ccc2c1", "observed": "cell-free assay", "technique": "competition with immobilised ligand", "tested at": "1 µM"}
{"target": "Phosphatidylinositol 4,5-bisphosphate 3-kinase catalytic subunit alpha isoform (PIK3CA, Homo sapiens, UniProt P42336, E545K)", "remaining binding [%]": 100}
{"target": "Serine/threonine-protein kinase PRP4 homolog (PRPF4B, Homo sapiens, UniProt Q13523)", "remaining binding [%]": 100}
{"target": "Activin receptor type-2B (ACVR2B, Homo sapiens, UniProt Q13705)", "remaining binding [%]": 94}
{"target": "Cyclin-dependent kinase 9 (CDK9, Homo sapiens, UniProt P50750)", "remaining binding [%]": 100}
{"target": "Megakaryocyte-associated tyrosine-protein kinase (MATK, Homo sapiens, UniProt P42679)", "remaining binding [%]": 100}
{"target": "Tyrosine-protein kinase receptor TYRO3 (TYRO3, Homo sapiens, UniProt Q06418)", "remaining binding [%]": 92}
{"target": "Ribosomal protein S6 kinase alpha-5, C-terminal kinase domain (RPS6KA5, Homo sapiens, UniProt O75582)", "remaining binding [%]": 95}
{"target": "Epidermal growth factor receptor (EGFR, Homo sapiens, UniProt P00533, G719C)", "remaining binding [%]": 83}
{"data": "Sample 3", "target": "Tyrosine-protein kinase SYK (SYK, Homo sapiens, UniProt P43405)", "observed": "enzyme activity", "mode": "inhibitor", "tested at": "0.5 µM", "reference": "control"}
{"Compound": "N#Cc1cnc2cnc(NCc3cccnc3)cc2c1Nc1ccc(F)c(Cl)c1", "remaining activity [%]": 94.4}
{"Compound": "CCCNC(=O)Nc1ccc(Oc2ncnc3cc(OC)c(OC)cc23)cc1Cl", "remaining activity [%]": 97.5}
{"Compound": "COc1cccc(-c2cc(=O)c3ccccc3o2)c1N", "remaining activity [%]": 97.2}
{"Compound": "O=C1NC(=O)c2c1c1c3ccccc3[nH]c1c1[nH]c3cc(Br)ccc3c21", "remaining activity [%]": 58.3}
{"Compound": "O=c1cc(N2CCOCC2)oc2c(-c3ccccc3)cccc12", "remaining activity [%]": 99.7}
{"Compound": "c1ccc(-c2n[nH]c3c2oc2ccccc23)cc1", "remaining activity [%]": 97.7}
{"Compound": "CCCCc1c(-c2ccc(OC)cc2)[nH]c2nccnc12", "remaining activity [%]": 47.5}
{"Compound": "CN(C)S(=O)(=O)c1ccc2c(c1)/C(=C/c1cc3c([nH]1)CCCC3)C(=O)N2", "remaining activity [%]": 77.7}
{"data": "Sample 4", "target": "Ras GTPase-activating protein-binding protein 1, full length (G3BP1, Homo sapiens, UniProt Q13283)", "technique": "RNA Bind-n-Seq", "form": "RNA", "sample": "in vitro", "tested at": "200 nM", "setting": "whole 134-nt RNA, ends assumed", "added": "150 mM KCl", "reference": "input library", "reading": "higher = stronger binding", "all sequences stand within": "GGGAGUUCUACAGUCCGACGAUC … UGGAAUUCUCGGGUGUCAAGG", "UniProt Q13283, sequence (whole entry, looked up)": "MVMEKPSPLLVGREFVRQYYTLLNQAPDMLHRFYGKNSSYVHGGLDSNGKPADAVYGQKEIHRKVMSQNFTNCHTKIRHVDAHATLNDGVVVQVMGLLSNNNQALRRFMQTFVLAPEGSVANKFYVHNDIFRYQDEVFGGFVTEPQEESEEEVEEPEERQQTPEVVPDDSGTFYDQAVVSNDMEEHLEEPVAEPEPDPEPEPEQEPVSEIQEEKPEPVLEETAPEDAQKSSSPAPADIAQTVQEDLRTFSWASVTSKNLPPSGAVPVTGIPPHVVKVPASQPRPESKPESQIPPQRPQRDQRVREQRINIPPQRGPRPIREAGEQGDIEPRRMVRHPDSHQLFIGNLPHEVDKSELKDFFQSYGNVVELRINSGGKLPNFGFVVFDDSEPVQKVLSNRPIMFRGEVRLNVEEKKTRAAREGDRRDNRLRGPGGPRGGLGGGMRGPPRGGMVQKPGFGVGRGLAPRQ"}
{"Oligonucleotide": "UCCUGUGCUACACAUCGUAUGUACCGAAUCGGGGAGGGGUUUUUUUGGGGAAAAAGGGGAAAGUAUUAUGUUACGCCGUUCGGAUCUGCA", "log2 enrichment": 0.607}
{"Oligonucleotide": "UGGCCCUGGUGGCAUGCGGGGAGGAAGAGGUGGCCUCAUGGAUCGUGGUGGUCCCGGUGGAAUGUUCAGAGGUGGCCGUGGUGGGGACAG", "log2 enrichment": 0.313}
{"Oligonucleotide": "UGGAAGGAACGAGCCAGGAAGAGGGACUGGAACCAUCUCAGAAGCCAUGCCCCUCAGGCUGGAACUUGCCCUGUCUCCUCGCAGAUGAGG", "log2 enrichment": -1.72}
{"Oligonucleotide": "UGGCCCUGGUGGCAUGCGGGGAGGAAGAGGUGGCCUCAUGGAUCGUGGUGGUCCCGGUGUAAUGUUCAGAGGUGGCCGUGGUGGAGACAG", "log2 enrichment": 0.091}
{"Oligonucleotide": "CCUGUGCUACACAUCGUAUGUACCGAAUCAAAGUGUGUGUGUGUAAAGUGUGUGUGUAAAAAAGUAUUAUGUUACGCCGUUCGGAUCUGC", "log2 enrichment": -0.271}
{"Oligonucleotide": "UGAAUCCUUCCUUGAUGAUGAAGAGGUAUGUCAACAAGGGUAAUAAUUUGUUUUCUUCUGAUUACUCUCAUAUUUUUAUUAUCUUUUAUU", "log2 enrichment": -1.43}
{"Oligonucleotide": "ACCAUGCAGGUGGGCAUCUUUGGGAAGUGGGGCAAGGGGGGGAUAGGGAGGGGGGUAUCACUUUGGGAACAGGUGGUCCCAGGUCGUUUC", "log2 enrichment": 1.49}
{"Oligonucleotide": "UGCUGUGUCACCGGGAACGCAAAGGCUGGGAAGAAGGCCCUUCUCAAAAUGGACUGGUGUUGCAGGGUGAGAAGCUGCCCCCUGACUUCA", "log2 enrichment": -0.487}
{"note": "A few entries again (sample 2):"}
{"target": "Activin receptor type-2B (ACVR2B, Homo sapiens, UniProt Q13705)", "remaining binding [%]": 94}
{"target": "Phosphatidylinositol 4,5-bisphosphate 3-kinase catalytic subunit alpha isoform (PIK3CA, Homo sapiens, UniProt P42336, E545K)", "remaining binding [%]": 100}
{"target": "Ribosomal protein S6 kinase alpha-5, C-terminal kinase domain (RPS6KA5, Homo sapiens, UniProt O75582)", "remaining binding [%]": 95}
